Measured values pooled from the literature.
Lines come from different studies, so protocols differ.
Method: steady-state kinetics
B1: cyc1 V329A (Streptomyces coelicolor, UniProt Q9K499); chain MHAFPHGTTATPTAIAVPPSLRLPVIEAAFPRQLHPYWPKLQETTRTWLLEKRLMPADKVEEYADGLCYTDLMAGYYLGAPDEVLQAIADYSAWFFVWDDRHDRDIVHGRAGAWRRLRGLLHTALDSPGDHLHHEDTLVAGFADSVRRLYAFLPATWNARFARHFHTVIEAYDREFHNRTRGIVPGVEEYLELRRLTFAHWIWTDLLEPSSGCELPDAVRKHPAYRRAALLSQEFAAWYNDLCSLPKEIAGDEVHNLGISLITHHSLTLEEAIGEVRRRVEECITEFLAVERDALRFADELADGTVRGKELSGAVRANVGNMRNWFSSAYWFHHESGRYMVDSWDDRSTPPYVNNEAAGEK
B2: FDC1 (Saccharomyces cerevisiae, UniProt Q03034); chain MRKLNPALEFRDFIQVLKDEDDLIEITEEIDPNLEVGAIMRKAYESHLPAPLFKNLKGASKDLFSILGCPAGLRSKEKGDHGRIAHHLGLDPKTTIKEIIDYLLECKEKEPLPPITVPVSSAPCKTHILSEEKIHLQSLPTPYLHVSDGGKYLQTYGMWILQTPDKKWTNWSIARGMVVDDKHITGLVIKPQHIRQIADSWAAIGKANEIPFALCFGVPPAAILVSSMPIPEGVSESDYVGAILGESVPVVKCETNDLMVPATSEMVFEGTLSLTDTHLEGPFGEMHGYVFKSQGHPCPLYTVKAMSYRDNAILPVSNPGLCTDETHTLIGSLVATEAKELAIESGLPILDAFMPYEAQALWLILKVDLKGLQALKTTPEEFCKKVGDIYFRTKVGFIVHEIILVADDIDIFNFKEVIWAYVTRHTPVADQMAFDDVTSFPLAPFVSQSSRSKTMKGGKCVTNCIFRQQYERSFDYITCNFEKGYPKGLVDKVNENWKRYGYK
B3: GTPBP3 N259A (Homo sapiens, UniProt Q969Y2); chain TRRSSGAPAPGSGATIFALSSGQGRCGIAVIRTSGPASGHALRILTAPRDLPLARHASLRLLSDPRSGEPLDRALVLWFPGPQSFTGEDCVEFHVHGGPAVVSGVLQALGSVPGLRPAEAGEFTRRAFANGKLNLTEVEGLADLIHAETEAQRRQALRQLDGELGHLCRGWAETLTKALAHVEAYIDFGEDDNLEEGVLEQADIEVRALQVALGAHLRDARRGQRLRSGVHVVVTGPPAAGKSSLVNLLSRKPVSIVSPEPGTTRDVLETPVDLAGFPVLLSDTAGLREGVGPVEQEGVRRARERLEQADLILAMLDASDLASPSSCNFLATVVASVGAQSPSDSSQRLLLVLNKSDLLSPEGPGPGPDLPPHLLLSCLTGEGLDGLLEALRKELAAVCGDPSTDPPLLTRARHQHHLQGCLDALGHYKQSKDLALAAEALRVARGHLTRLTGGGGTEEILDIIFQDFCVGK
B4: enzyme (Oryza sativa, UniProt Q6Z955); chain MMLAYMDHAAAAAEPDAGAEPAVAAVDAAEFAAAMDFGGLVSARPAAVVRPASSDDVASAIRAAARTAHLTVAARGNGHSVAGQAMARGGLVLDMRALPRRMQLVVAPSGEKFADVPGGALWEEVLHWAVSKHGLAPASWTDYLRLTVGGTLSNGGVSGQSFRYGPQVSNVAQLEVVTGDGECHVCSRSADPDLFFAVLGGLGQFGVITRARIPLSPAPQTVRWTRVVYASFADYAADAEWLVTRPPHEAFDYVEGFAFVRSDDPVNGWPTVPIPDGAHFDASLLPANAGPVLYCLEVALYQRGGGGDGGGDDMDKRVGEMMRQLKYVRGLEFAAGVGYVDFLSRVNRVEDEARRNGSWAAPHPWLNLFISSRDIAAFDRAVLNGMLADGVDGPMLIYPMLKSKWDPATSVALPNGEIFYLVALLRFCRPYPGGGPPVDELVAQNNAIIDACRSNGYDYKIYFPSYHAQSDWSRHFGAKWSRFVDRKARYDPLAILAPGQNIFARTPSSVAAAAAVIV
B5: ltaE H126F/H83F (Escherichia coli, UniProt P75823); chain MIDLRSDTVTRPSRAMLEAMMAAPVGDDVYGDDPTVNALQDYAAELSGKEAAIFLPTGTQANLVALLSHCERGEEYIVGQAAFNYLFEAGGAAVLGSIQPQPIDAAADGTLPLDKVAMKIKPDDIFFARTKLLSLENTHNGKVLPREYLKEAWEFTRERNLALHVDGARIFNAVVAYGCELKEITQYCDSFTICLSKGLGTPVGSLLVGNRDYIKRAIRWRKMTGGGMRQSGILAAAGIYALKNNVARLQEDHDNAAWMAEQLREAGADVMRQDTNMLFVRVGEENAAALGEYMKARNVLINASPIVRLVTHLDVSREQLAEVAAHWRAFLAR
B6: enzyme (Enterococcus faecalis, UniProt Q836D9); chain MKKILTYGTFDLLHYGHINLLKKAKQQGDYLIVGLSTDAFNLEKKKQSYFSYEKRKQLLEAIRYVDLVIPETSWKQKVSDIAEFKIDTLVMGDDWQGAFDFLEVETTAKVLYLPRTPEVSTTQIKKELYYSE
B7: CYP6A8 (Drosophila melanogaster, UniProt Q27593); chain MALTYILFQVAVALLAILTYYIHRKLTYFKRRGIPFVAPHLIRGNMEELQKTKNIHEIFQDHYNKFRESKAPFVGFFFFQSPAAFVIDLELAKQILIKDFSNFSNKGIFYNEKDDPISAHLFNLDGAQWRLLRNKLSSTFTSGKMKLMYPTVVSVANEFMTVMHEKVPKNSVLEIRDLVARFTVDVIGTCAFGIQCNSLRDEKAEFLYFGKRSLVDKRHGTLLNGFMRSYPKLARKLGMVRTAPHIQEFYSRIVTETVAVREKEHIKRNDFMDMLIELKNQKEMTLENGDVVRGLTMEEVLAQAFVFFIAGFETSSSTMGFALYELAKNPDIQDKVRAEVEEVIEQHDQNFTYECTKDLKYLNQVLDETLRLYTIVPNLDRMAAKRYVVPGHPNFVIEAGQSVIIPSSAIHHDPSIYPEPFEFRPERFSPEESAGRPSVAWLPFGDGPRNCIGLRFGQMQARIGLALLIRNFKFSTCSKTPNPLVYDPKSFVLGVKDGIYLKVETV
B8: ERAP1 K528R (Homo sapiens, UniProt Q9NZ08); chain MVFLPLKWSLATMSFLLSSLLALLTVSTPSWCQSTEASPKRSDGTPFPWNKIRLPEYVIPVHYDLLIHANLTTLTFWGTTKVEITASQPTSTIILHSHHLQISRATLRKGAGERLSEEPLQVLEHPRQEQIALLAPEPLLVGLPYTVVIHYAGNLSETFHGFYKSTYRTKEGELRILASTQFEPTAARMAFPCFDEPAFKASFSIKIRREPRHLAISNMPLVKSVTVAEGLIEDHFDVTVKMSTYLVAFIISDFESVSKITKSGVKVSVYAVPDKINQADYALDAAVTLLEFYEDYFSIPYPLPKQDLAAIPDFQSGAMENWGLTTYRESALLFDAEKSSASSKLGITMTVAHELAHQWFGNLVTMEWWNDLWLNEGFAKFMEFVSVSVTHPELKVGDYFFGKCFDAMEVDALNSSHPVSTPVENPAQIREMFDDVSYDKGACILNMLREYLSADAFKSGIVQYLQKHSYKNTKNEDLWDSMASICPTDGVKGMDGFCSRSQHSSSSSHWHQEGVDVKTMMNTWTLQRGFPLITITVRGRNVHMKQEHYMKGSDGAPDTGYLWHVPLTFITSKSDMVHRFLLKTKTDVLILPEEVEWIKFNVGMNGYYIVHYEDDGWDSLTGLLKGTHTAVSSNDRASLINNAFQLVSIGKLSIEKALDLSLYLKHETEIMPVFQGLNELIPMYKLMEKRDMNEVETQFKAFLIRLLRDLIDKQTWTDEGSVSERMLRSQLLLLACVHNYQPCVQRAEGYFRKWKESNGNLSLPVDVTLAVFAVGAQSTEGWDFLYSKYQFSLSSTEKSQIEFALCRTQNKEKLQWLLDESFKGDKIKTQEFPQILTLIGRNPVGYPLAWQFLRKNWNKLVQKFELGSSSIAHMVMGTTNQFSTRTRLEEVKGFFSSLKENGSQLRCVQQTIETIEENIGWMDKNFDKIRVWLQSEKLEHDPEADATG
B9: enzyme (Bacillus pumilus, UniProt A8FFI9); chain EARSIAWSVDEFFKNREGTFVIQEVKEKSPWVYNKKRAKERFAPQSTFKVANALIGLQTGAVRDEYDIKYWDGVKREIDNWNRDHTLGSGMRDSVVWYYQAMARDIGEERMNHWVKAIHYGNKDISGGIDQFWLSSTLRISPIEQVRFLKQLYEETLPFDLKNMRTVKRMMVQEEEKHATLYGKTGSGSDIGWYVGFIKHEHKTYILATNIKGTGIEAKDITYRILKKYHLMEASV
Sequence of UniProt Q6P4A8 (whole entry, looked up): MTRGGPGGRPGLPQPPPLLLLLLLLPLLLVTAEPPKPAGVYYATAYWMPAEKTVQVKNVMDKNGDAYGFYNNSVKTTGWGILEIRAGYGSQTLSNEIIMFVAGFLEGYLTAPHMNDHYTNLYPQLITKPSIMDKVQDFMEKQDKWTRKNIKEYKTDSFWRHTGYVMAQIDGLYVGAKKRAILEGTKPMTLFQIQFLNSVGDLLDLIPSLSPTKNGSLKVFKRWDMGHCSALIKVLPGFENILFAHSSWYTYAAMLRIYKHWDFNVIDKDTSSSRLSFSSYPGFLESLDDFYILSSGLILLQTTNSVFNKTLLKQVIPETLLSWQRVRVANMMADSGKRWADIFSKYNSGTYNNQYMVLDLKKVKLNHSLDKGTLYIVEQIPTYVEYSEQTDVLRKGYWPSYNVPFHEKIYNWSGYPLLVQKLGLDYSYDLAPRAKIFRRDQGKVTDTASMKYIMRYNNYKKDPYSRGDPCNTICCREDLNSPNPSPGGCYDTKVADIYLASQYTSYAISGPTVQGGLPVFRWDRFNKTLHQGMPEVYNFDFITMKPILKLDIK

enzyme (Pseudomonas putida, UniProt Q88P31) — Km (NC(=O)c1ccc[n+]([C@@H]2O[C@H](COP(=O)(O)OP(=O)(O)OC[C@H]3O[C@@H](n4cnc5c(N)ncnc54)[C@H](OP(=O)(O)O)[C@@H]3O)[C@@H](O)[C@H]2O)c1; pH 8, 30 °C): 14 µM
B1 (cyc1 V329A) — Km (CC(C)=CCC/C(C)=C/CC/C(C)=C/CO[P@@](=O)(O)OP(=O)(O)O; pH 6.5, 30 °C, together with: MgCl2 10 mM): 0.47 µM
B2 (FDC1) — Km (COc1cc(/C=C/C(=O)O)ccc1O; pH 7, 25 °C, apparent kcat, incomplete cofactor occupancy, apparent): 180 µM
B3 (GTPBP3 N259A) — Km (Nc1nc2c(ncn2[C@@H]2O[C@H](COP(=O)(O)OP(=O)(O)OP(=O)(O)O)[C@@H](O)[C@H]2O)c(=O)[nH]1; pH 8, 37 °C, KCl 300 mM): 11.4 µM
PLBD1 self-cleaved, cathepsin L-processed (Homo sapiens, UniProt Q6P4A8) — Km (Cc1cc(=O)oc2cc(NC(=O)[C@@H](N)CC(C)C)ccc12; pH 4.5, 37 °C, together with: cathepsin L): 13.1 µM
B4 (enzyme) — Km (C/C(=C/CNc1ncnc2[nH]cnc12)CO; pH 9.5, 40 °C, apparent): 28.3 µM
B5 (ltaE H126F/H83F) — Km (C[C@H](O)[C@H](N)C(=O)O; pH 7, 30 °C, potassium phosphate 20 mM, retro-aldol cleavage, together with: PLP 500 µM): 7400 µM
B6 (enzyme) — Km (O=P(O)(O)OC[C@H](O)CO; pH 8, 37 °C, apparent): 4030 µM
B7 (CYP6A8) — Km (CCCCCCCCCCCC(=O)O; DLPC; pH 7.4, 37 °C, total hydroxylation, together with: P450 reductase, NADPH): 10.7 µM
B8 (ERAP1 K528R) — Km (CC(C)C[C@H](NC(=O)CNC(=O)[C@H](CCC(=O)O)NC(=O)[C@H](Cc1ccccc1)NC(=O)[C@H](CCCNC(=N)N)NC(=O)[C@H](CCCCN)NC(=O)[C@@H](N)Cc1ccc(O)cc1)C(=O)N[C@H](C(=O)N[C@@H](CCC(N)=O)C(=O)N[C@@H](CCCNC(=N)N)C(=O)O)[C@@H](C)O; 25 °C): 37 µM
CASK (Homo sapiens, UniProt O14936) — Km (Nc1ncnc2c1ncn2[C@@H]1O[C@H](COP(=O)(O)OP(=O)(O)OP(=O)(O)O)[C@@H](O)[C@H]1O; pH 7.4, 30 °C, NaCl 100 mM, no added metal): 1640 µM
B9 (enzyme) — Km (O=C(Cc1cccs1)N[C@@H]1C(=O)N2C(C(=O)O)=C(/C=C/c3ccc([N+](=O)[O-])cc3[N+](=O)[O-])CS[C@H]12; pH 7): 82 µM
